{"data": "Measured values pooled from the literature", "note": "Protocols differ between the studies behind these lines. “And” joins repeats or separate records; there may be more than shown. ± marks the error that the study gave.", "chain of UniProt P20813 (whole entry, looked up)": "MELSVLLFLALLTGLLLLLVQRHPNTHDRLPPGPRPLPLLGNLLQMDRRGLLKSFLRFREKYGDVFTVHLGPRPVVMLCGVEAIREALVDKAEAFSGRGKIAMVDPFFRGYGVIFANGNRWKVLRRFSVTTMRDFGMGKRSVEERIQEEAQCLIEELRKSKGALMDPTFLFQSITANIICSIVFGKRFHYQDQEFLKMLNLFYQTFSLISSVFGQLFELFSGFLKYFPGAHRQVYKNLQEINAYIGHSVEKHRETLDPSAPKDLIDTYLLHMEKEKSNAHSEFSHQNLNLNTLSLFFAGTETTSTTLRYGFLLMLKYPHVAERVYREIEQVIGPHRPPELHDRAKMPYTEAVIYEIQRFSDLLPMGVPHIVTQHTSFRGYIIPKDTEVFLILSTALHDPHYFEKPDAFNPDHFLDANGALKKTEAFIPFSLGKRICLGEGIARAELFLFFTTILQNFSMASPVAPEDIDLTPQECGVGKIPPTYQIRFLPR", "chain of UniProt Q9Y6L6 (whole entry, looked up)": "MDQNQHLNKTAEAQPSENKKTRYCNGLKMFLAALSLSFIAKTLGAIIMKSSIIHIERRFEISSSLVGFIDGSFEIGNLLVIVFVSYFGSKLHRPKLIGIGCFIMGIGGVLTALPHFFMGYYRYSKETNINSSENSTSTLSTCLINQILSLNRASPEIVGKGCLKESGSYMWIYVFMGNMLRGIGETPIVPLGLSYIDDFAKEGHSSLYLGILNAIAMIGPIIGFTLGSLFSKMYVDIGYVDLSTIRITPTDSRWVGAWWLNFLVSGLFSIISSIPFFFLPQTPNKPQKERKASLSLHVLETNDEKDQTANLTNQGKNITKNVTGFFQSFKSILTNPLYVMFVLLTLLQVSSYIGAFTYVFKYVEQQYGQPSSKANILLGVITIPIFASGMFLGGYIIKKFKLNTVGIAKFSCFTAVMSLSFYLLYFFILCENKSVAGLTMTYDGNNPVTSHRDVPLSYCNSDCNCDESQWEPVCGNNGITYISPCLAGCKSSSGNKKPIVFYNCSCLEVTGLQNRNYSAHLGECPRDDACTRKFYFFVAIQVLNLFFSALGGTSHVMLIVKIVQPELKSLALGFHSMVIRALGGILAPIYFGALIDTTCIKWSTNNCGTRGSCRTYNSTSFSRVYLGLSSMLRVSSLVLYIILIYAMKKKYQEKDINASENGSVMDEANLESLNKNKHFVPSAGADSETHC"}
{"Compound": "CC(C)CC(=O)OC[C@H]1O[C@@](C#N)(c2ccc3c(N)ncnn23)[C@H](O)[C@@H]1O", "tested on": "Cytochrome P450 2B6 (CYP2B6, Homo sapiens, UniProt P20813)", "assay": "metabolic stability", "system": "recombinant enzyme", "setting": "1 µM", "measurement": "intrinsic clearance", "value": "0 µL/min/pmol"}
{"Compound": "COc1cc2c(Oc3ccc4[nH]c(C)cc4c3F)ccnc2cc1OCC1(N)CC1", "system": "paediatric recurrent refractory sarcoma", "setting": "8 mg", "measurement": "grade 1 or 2 Proteinuria", "value": "25%"}
{"Compound": "Cc1cc2c(c(O)c1O)C(=O)c1c(O)cc(O)cc1C2=O", "tested on": "HK-2 co-cultured with HepaRG", "assay": "MTT", "setting": "133.33 µM, 24 h", "how to read": "reference: untreated control", "measurement": "cell viability", "value": "130 ± 19.3%"}
{"Compound": "O=C(O)C(F)(F)C(F)(F)C(F)(F)C(F)(F)C(F)(F)C(F)(F)C(F)(F)F", "tested on": "SLCO1B1 (Homo sapiens, UniProt Q9Y6L6)", "assay": "uptake, substrate", "system": "CHO cells stably expressing SLCO1B1", "setting": "1 min, 37 °C", "measurement": "Jmax", "value": "2300 ± 295 pmol/min/mg protein"}
{"Compound": "CO[C@H]1C[C@@H]2CC[C@@H](C)[C@@](O)(O2)C(=O)C(=O)N2CCCC[C@H]2C(=O)O[C@H]([C@H](C)C[C@@H]2CC[C@@H](OC(=O)NCCOCCOCCOCCOCCOCCOCCOCCOCCC(=O)N3CCc4cc(Cn5nc(-c6ccc7oc(N)nc7c6)c6c(N)ncnc65)ccc4C3)[C@H](OC)C2)C[C@@H](O)[C@H](C)/C=C(\\C)[C@@H](O)[C@@H](OC)C(=O)[C@H](C)C[C@H](C)/C=C/C=C/C=C/1C", "system": "patients with advanced solid tumours", "setting": "intravenous, 10 mg weekly, any grade", "measurement": "abdominal pain incidence", "value": "25%"}
{"Compound": "OC(CCN1CC=C(c2ccc(F)cc2)CC1)c1ccc(F)c2ccccc12 (stereo not drawn)", "tested on": "Salmonella typhimurium", "assay": "SOS/umu test", "system": "TA1535/pSK1002", "setting": "0.125 mg/mL, 4 h, without S9, lower range", "measurement": "survival", "value": "77.6%"}
{"Compound": "C[C@]1(CO)Cc2ncn(-c3ccc(C#N)c(Cl)c3)c2C(=O)O1", "system": "healthy Japanese adults, plasma", "setting": "3 mg once daily, after first dose, multiple dose", "measurement": "Cmax", "value": "213 nM"}
{"Compound": "CCc1ccc(CC/C=C/c2ccc3c(c2)C(=O)CC3)cc1", "system": "Sprague-Dawley rat, female, blood", "setting": "oral, 30 mg/kg/day, 14 days", "measurement": "MCH", "value": "19.3 pg"}
{"Compound": "CC1(C)[C@H](C(=O)OCc2cccc(Oc3ccccc3)c2)[C@@H]1C=C(Cl)Cl", "tested on": "human cytosolic CES2", "assay": "IVIVE from expressed enzymes", "system": "human, liver, in vivo scaled", "setting": "0.1 µM, age-specific", "measurement": "enzyme contribution to CLint", "value": "5.5%"}
{"Compound": "Cc1cc(C(=O)NC(C)(C)COc2cccc3c2C(N)=NS(=O)(=O)N3)cc(C)n1", "tested on": "Salmonella typhimurium", "assay": "Ames test, initial", "system": "TA100", "setting": "5.00 µg/plate, with: rat liver S9", "how to read": "reference: solvent control", "measurement": "revertant ratio", "value": 1.4}
{"Compound": "O=[N+]([O-])c1ccc(N2CCN(CCC(O)c3ccc(F)cc3)CC2)c(C(F)(F)F)c1 (stereo not drawn)", "tested on": "Salmonella typhimurium", "assay": "SOS/umu test", "system": "TA1535/pSK1002", "setting": "0.008 mg/mL, 4 h, without S9, lower range", "measurement": "survival", "value": "92.4%"}
{"Compound": "O=C1c2ccccc2C(=O)c2ccccc21", "tested on": "HK-2 co-cultured with HepaRG", "assay": "MTT", "setting": "33.33 µM, 48 h", "how to read": "reference: untreated control", "measurement": "viability", "value": "62.5 ± 3.19%"}
{"Compound": "O=c1ccc2ccccc2o1", "tested on": "HepG2", "assay": "item: steatosis", "setting": "24 h, phospholipidosis and steatosis panel", "measurement": "point of departure", "value": "598 µM"}
{"Compound": "CC(=O)OC[C@H]1O[C@@H](Oc2cc(O)cc3cc4oc(C)cc(=O)c4c(O)c23)[C@H](O)[C@@H](O)[C@@H]1O", "tested on": "HK-2 co-cultured with HepaRG", "assay": "MTT", "setting": "16.67 µM, 24 h", "how to read": "reference: untreated control", "measurement": "cell viability", "value": "112 ± 15%"}
{"Compound": "COc1cc2ncnc(Nc3cccc(Cl)c3)c2cc1OC", "tested on": "HaCaT", "setting": "0.046 µM, 60 h", "measurement": "viability", "value": "102% and 99.3% and 105%"}
{"Compound": "[Cl-].[Cl-].[Pt+2].[Ru+2].c1ccc(-c2nccnc2-c2ccccn2)nc1.c1cnc2c(c1)ccc1cccnc12.c1cnc2c(c1)ccc1cccnc12", "tested on": "Danio rerio", "system": "embryos", "setting": "15 µM, 12 h", "measurement": "survival rate", "value": "93.3 ± 2.1%"}
{"Compound": "CC(=O)N1CCC(C(=O)N2CCN3C(=O)c4cc(-c5ccccc5)ccc4NC(=O)C3C2)CC1 (stereo not drawn)", "tested on": "Salmonella typhimurium", "system": "TA1537", "setting": "1581 µg/plate", "how to read": "reference: vehicle", "measurement": "fold increase in revertants", "value": 1}
{"Compound": "COc1ccc2c(c1OC)C(=O)c1c(cc(C)c(O)c1OC)C2=O", "tested on": "HepaRG co-cultured with HK-2", "assay": "MTT", "setting": "33.33 µM, 24 h", "how to read": "reference: untreated control", "measurement": "cell viability", "value": "97 ± 9.15%"}
{"Compound": "[Cl-].[Cl-].[Pt+2].[Ru+2].c1ccc(-c2nc3cc4ccccc4cc3nc2-c2ccccn2)nc1.c1cnc2c(c1)ccc1cccnc12.c1cnc2c(c1)ccc1cccnc12", "tested on": "Danio rerio", "system": "embryos", "setting": "30 µM, 72 h", "measurement": "hatching rate", "value": "46.7 ± 4.6%"}
{"Compound": "COc1cccc(-c2n[nH]c(SCc3ccccn3)n2)c1OC", "tested on": "Escherichia coli", "assay": "Ames test, preincubation", "system": "WP2 uvrA", "setting": "0.50 mg/plate, without S9", "measurement": "revertant colonies per plate", "value": 10}
{"Compound": "CN/C(=N\\[N+](=O)[O-])NCc1cnc(Cl)s1", "system": "soil", "setting": "28 days, nominal 0.12", "measurement": "concentration", "value": "0.04 mg/kg dry soil"}
{"note": "For quick reference, copied from above:"}
{"Compound": "CC(=O)OC[C@H]1O[C@@H](Oc2cc(O)cc3cc4oc(C)cc(=O)c4c(O)c23)[C@H](O)[C@@H](O)[C@@H]1O", "tested on": "HK-2 co-cultured with HepaRG", "assay": "MTT", "setting": "16.67 µM, 24 h", "how to read": "reference: untreated control", "measurement": "cell viability", "value": "112 ± 15%"}
{"Compound": "COc1cc2ncnc(Nc3cccc(Cl)c3)c2cc1OC", "tested on": "HaCaT", "setting": "0.046 µM, 60 h", "measurement": "viability", "value": "102% and 99.3% and 105%"}
